Results collected from several papers.
Each line is one published result; not all experiments were run side by side. Numbers after ± are the reported error. ≈ marks a conversion by molar mass, not a printed value.
Sequence of UniProt P15056 (whole entry, looked up): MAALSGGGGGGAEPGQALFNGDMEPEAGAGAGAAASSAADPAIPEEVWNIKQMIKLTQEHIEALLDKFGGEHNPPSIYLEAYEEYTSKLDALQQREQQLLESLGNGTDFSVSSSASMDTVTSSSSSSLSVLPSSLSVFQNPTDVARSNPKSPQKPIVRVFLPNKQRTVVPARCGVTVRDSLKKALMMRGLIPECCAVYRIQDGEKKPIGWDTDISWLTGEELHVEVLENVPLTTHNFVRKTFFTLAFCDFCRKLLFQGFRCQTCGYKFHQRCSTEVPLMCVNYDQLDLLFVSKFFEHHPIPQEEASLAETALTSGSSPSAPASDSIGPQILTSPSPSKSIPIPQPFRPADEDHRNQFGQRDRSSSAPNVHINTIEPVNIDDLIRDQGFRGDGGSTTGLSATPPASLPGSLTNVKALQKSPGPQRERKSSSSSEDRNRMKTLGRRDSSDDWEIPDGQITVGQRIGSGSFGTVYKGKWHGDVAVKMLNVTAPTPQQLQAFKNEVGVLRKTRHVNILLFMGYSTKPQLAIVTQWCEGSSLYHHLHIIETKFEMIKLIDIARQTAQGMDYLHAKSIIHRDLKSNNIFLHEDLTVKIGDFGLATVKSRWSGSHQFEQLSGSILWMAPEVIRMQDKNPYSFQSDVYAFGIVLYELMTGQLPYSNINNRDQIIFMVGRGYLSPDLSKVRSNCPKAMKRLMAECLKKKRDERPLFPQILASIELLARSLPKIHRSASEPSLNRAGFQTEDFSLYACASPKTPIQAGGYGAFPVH

Cl.O=c1sc2cc(Cc3ccccc3)ccc2n1CCN1CCCCCC1
AUC (male CD-1 mouse, brain; oral, 50 mg/kg): 248 ± 37.8 ng·h/g

hdhb E18D/G39D/R40A/R41A/T17A (Clostridium sardiniense)
kcat/Km (NC(=O)c1ccc[n+]([C@@H]2O[C@H](COP(=O)(O)OP(=O)(O)OC[C@H]3O[C@@H](n4cnc5c(N)ncnc54)[C@H](O)[C@@H]3O)[C@@H](O)[C@H]2O)c1; steady-state kinetics; pH 8, 25 °C, cofactor varied): 68 M⁻¹ s⁻¹

CN(C)c1ccc(-c2ccc3[nH]cc(-c4ccnc(N)n4)c3c2)cc1
AUC (CD-1 mouse male, plasma; oral, 10 mg/kg): 2.3 µM·h

SQETFSDLWKLLPENN
enrichment score (Saccharomyces cerevisiae; cell growth, competitive growth sequencing; peptide, no cyclin overexpression; peptide tiling library; direction not given): 0.176

CCCC[C@H]1NC(=O)[C@H](Cc2ccc(F)cc2)NC(=O)[C@H](CCCNC(=N)N)NC(=O)[C@@H](Cc2ccc3ccccc3c2)NC(=O)[C@H](CCCNC(=N)N)NC(=O)[C@H](CCCNC(=N)N)NC(=O)[C@H](CCC(N)=O)NC(=O)C[C@@H](CCc2ccccc2)NC(=O)[C@@H]2CCCCN2C(=O)C(=O)C(C)(C)COC1=O
binding (bovine serum albumin; fluorescence polarization; up to 20 µM): no binding

Cc1ccc(NC(=O)c2ccc(C)c(C(F)(F)F)c2)cc1C#Cc1nn(C2CCC(O)CC2)c2ncnc(N)c12 (centres unmarked)
remaining activity (BRAF (Homo sapiens, UniProt P15056); enzyme activity, inhibitor; 10 µM, together with: ATP 10 µM; relative to: control): 7%

dmhA Y158F (Campylobacter jejuni)
kcat/Km (Nc1nc2c(ncn2[C@@H]2O[C@H](COP(=O)(O)OP(=O)(O)O[C@H]3O[C@H]([C@H](O)CO)[C@@H](O)[C@H](O)[C@@H]3O)[C@@H](O)[C@H]2O)c(=O)[nH]1; steady-state kinetics; pH 7.5, 30 °C): 38 ± 3 M⁻¹ s⁻¹

CC[C@H](C)[C@H](NC(=O)[C@@H]1CCCN1C(=O)[C@H](CCCCN)NC(=O)[C@H](CC(C)C)NC(=O)[C@H](C)NC(=O)[C@@H](NC(=O)[C@@H](NC(=O)[C@H](CC(C)C)NC(=O)[C@@H](NC(=O)[C@H](CCCCN)NC(=O)[C@H](CCCCN)NC(=O)[C@H](C)NC(=O)[C@H](C)NC(=O)[C@H](CO)NC(=O)[C@@H](NC(=O)[C@H](CC(C)C)NC(=O)[C@H](CCCCN)NC(=O)[C@H](CCCCN)NC(=O)[C@H](CC(C)C)NC(=O)[C@H](Cc1ccccc1)NC(=O)[C@H](CCCCN)NC(=O)[C@H](CCCCN)NC(=O)[C@H](Cc1c[nH]c2ccccc12)NC(=O)[C@@H](N)CCCCN)[C@@H](C)O)C(C)C)[C@@H](C)O)[C@@H](C)O)C(=O)N[C@@H](CO)C(=O)N[C@@H](CO)C(=O)O
MIC (Escherichia coli; ATCC 25922): 1.16 µM (≈ 3.38 µg/mL)
